{"data": "Assay results of several laboratories", "note": "Every numbered part comes from another study and shows a few of its results, in no order.", "sequence of UniProt Q15303 (whole entry, looked up)": "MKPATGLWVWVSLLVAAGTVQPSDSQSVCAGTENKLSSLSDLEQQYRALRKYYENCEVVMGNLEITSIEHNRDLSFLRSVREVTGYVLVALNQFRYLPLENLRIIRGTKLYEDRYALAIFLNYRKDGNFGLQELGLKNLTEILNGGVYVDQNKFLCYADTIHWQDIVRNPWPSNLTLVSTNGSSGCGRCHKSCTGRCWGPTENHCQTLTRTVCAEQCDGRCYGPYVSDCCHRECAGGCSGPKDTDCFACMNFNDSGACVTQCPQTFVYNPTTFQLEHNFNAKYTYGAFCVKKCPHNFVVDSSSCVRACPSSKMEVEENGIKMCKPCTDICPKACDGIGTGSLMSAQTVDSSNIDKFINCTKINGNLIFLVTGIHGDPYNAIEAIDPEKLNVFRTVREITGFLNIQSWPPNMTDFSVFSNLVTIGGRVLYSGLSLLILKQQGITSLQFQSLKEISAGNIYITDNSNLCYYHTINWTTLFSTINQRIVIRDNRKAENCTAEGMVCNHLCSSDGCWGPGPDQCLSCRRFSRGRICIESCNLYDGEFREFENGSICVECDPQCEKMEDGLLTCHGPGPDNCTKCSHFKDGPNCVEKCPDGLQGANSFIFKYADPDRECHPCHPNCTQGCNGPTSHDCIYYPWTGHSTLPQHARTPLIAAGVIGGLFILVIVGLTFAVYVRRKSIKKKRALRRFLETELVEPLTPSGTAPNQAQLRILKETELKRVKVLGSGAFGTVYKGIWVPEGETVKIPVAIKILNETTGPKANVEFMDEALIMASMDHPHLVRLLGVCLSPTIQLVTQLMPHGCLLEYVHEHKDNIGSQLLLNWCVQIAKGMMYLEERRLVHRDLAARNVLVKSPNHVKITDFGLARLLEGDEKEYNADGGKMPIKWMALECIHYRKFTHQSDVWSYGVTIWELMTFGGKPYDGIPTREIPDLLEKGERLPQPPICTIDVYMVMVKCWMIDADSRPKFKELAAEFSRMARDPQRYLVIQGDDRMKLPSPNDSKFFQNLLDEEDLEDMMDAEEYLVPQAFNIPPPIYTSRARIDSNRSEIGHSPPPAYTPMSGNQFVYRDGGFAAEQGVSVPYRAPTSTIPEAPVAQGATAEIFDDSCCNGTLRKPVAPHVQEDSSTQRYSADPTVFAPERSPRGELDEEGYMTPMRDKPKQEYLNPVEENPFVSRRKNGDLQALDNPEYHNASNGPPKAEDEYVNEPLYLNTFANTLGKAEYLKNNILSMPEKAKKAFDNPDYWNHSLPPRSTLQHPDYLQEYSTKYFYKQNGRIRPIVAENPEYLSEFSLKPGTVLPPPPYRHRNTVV"}
{"data": "Sample 1", "cell line": "HaCaT", "concentration": "100 µM", "time": "36 h"}
{"Compound": "Nc1cc(-c2ccncc2)c[nH]c1=O", "viability [%]": 91}
{"Compound": "CC(S)C(=O)NCC(=O)O (centres unmarked)", "viability [%]": 100}
{"Compound": "CC(=O)[C@H]1CC[C@H]2[C@@H]3CCC4=CC(=O)CC[C@]4(C)[C@H]3CC[C@]12C", "viability [%]": 32}
{"Compound": "CC1=NS(=O)(=O)c2cc(Cl)ccc2N1", "viability [%]": 91}
{"Compound": "COc1ccc(O)cc1", "viability [%]": 88.1}
{"Compound": "C[C@@H](c1ncncc1F)[C@](O)(Cn1cncn1)c1ccc(F)cc1F", "viability [%]": 98}
{"Compound": "CN1CCc2c(c3ccccc3n2Cc2ccccc2)C1", "viability [%]": 85.7}
{"Compound": "CN1C[C@@H]2c3ccccc3Oc3ccc(Cl)cc3[C@H]2C1 (racemic)", "viability [%]": 5.55}
{"Compound": "CNCc1cc(-c2ccccc2F)n(S(=O)(=O)c2cccnc2)c1", "viability [%]": 61.9}
{"Compound": "CN[C@@H]1[C@H](O)[C@H](NC)[C@H]2O[C@@]3(O)C(=O)C[C@@H](C)O[C@H]3O[C@@H]2[C@H]1O", "viability [%]": 98.1}
{"Compound": "C[n+]1ccccc1/C=N/O", "viability [%]": 92.7}
{"data": "Sample 2", "target": "DNA polymerase theta, helicase domain (POLQ, Homo sapiens, UniProt O75417)", "mode": "inhibitor", "concentration": "concentration not given", "notes": "absolute value", "together with": "with minus without ssDNA", "sequence of UniProt O75417 (whole entry, looked up)": "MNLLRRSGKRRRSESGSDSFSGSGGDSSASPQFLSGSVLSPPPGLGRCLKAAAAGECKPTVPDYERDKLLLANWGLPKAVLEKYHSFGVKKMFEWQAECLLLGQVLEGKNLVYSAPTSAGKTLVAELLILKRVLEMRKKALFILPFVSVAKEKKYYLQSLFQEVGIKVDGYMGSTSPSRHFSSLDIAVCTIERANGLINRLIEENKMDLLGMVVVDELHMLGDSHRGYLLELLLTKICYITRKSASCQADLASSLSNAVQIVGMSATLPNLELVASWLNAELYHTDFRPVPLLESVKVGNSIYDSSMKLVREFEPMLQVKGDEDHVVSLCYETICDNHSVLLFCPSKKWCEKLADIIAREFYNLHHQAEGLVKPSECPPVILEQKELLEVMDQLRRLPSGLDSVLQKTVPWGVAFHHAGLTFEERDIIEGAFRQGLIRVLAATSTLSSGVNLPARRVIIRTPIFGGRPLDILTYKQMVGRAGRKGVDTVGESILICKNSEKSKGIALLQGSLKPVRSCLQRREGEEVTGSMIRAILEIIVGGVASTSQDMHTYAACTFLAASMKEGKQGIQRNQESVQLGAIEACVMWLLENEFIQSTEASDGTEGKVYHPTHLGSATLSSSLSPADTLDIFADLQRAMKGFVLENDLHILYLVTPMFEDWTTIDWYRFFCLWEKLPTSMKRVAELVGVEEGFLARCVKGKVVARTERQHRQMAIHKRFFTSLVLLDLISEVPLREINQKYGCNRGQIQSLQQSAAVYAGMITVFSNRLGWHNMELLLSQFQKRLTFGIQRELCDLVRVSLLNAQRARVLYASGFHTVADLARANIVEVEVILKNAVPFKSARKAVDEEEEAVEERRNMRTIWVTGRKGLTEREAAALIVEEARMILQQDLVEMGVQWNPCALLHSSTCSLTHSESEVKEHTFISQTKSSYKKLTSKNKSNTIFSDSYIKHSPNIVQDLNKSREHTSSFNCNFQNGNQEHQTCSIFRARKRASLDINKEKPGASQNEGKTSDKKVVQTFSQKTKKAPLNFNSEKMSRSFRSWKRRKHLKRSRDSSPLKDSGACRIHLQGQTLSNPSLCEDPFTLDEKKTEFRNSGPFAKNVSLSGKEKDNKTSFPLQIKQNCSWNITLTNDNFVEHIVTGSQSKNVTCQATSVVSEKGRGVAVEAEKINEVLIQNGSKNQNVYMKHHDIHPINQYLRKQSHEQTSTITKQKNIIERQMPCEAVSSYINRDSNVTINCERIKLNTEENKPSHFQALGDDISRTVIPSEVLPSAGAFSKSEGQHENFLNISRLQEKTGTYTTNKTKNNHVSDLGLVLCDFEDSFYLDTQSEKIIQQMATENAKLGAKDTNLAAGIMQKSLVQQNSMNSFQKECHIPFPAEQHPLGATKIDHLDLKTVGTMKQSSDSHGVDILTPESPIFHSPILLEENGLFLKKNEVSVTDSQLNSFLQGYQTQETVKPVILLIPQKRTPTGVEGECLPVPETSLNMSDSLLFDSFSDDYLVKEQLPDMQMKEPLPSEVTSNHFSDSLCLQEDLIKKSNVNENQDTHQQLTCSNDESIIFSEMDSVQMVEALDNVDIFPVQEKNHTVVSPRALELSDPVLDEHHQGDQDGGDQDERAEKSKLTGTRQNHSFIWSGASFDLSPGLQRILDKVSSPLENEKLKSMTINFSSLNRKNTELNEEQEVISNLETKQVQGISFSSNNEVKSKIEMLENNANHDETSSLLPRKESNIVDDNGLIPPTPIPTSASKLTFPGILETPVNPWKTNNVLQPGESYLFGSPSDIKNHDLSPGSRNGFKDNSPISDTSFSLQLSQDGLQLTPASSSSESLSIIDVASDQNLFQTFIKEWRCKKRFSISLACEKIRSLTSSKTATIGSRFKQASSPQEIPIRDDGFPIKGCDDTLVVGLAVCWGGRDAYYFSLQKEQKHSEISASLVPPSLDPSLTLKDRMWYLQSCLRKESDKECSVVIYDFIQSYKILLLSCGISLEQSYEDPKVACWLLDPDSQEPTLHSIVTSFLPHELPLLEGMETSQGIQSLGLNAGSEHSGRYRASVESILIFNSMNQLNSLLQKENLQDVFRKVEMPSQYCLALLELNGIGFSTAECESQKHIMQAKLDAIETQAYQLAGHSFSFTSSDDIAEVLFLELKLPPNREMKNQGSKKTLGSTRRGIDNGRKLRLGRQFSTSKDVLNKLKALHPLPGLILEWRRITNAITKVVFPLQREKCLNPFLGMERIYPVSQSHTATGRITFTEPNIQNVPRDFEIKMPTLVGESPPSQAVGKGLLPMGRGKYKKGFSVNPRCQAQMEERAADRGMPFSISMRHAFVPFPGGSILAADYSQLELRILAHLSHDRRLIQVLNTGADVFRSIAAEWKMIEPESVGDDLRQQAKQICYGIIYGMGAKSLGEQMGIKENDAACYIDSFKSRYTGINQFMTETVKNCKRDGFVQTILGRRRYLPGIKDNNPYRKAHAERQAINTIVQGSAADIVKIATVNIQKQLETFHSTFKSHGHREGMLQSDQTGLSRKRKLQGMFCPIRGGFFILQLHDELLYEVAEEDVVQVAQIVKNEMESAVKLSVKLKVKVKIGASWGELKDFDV"}
{"Structure (SMILES)": "COc1ccc2c(c1)c(CC(=O)O)c(C)n2Cc1ccc(Cl)cc1", "difference in remaining activity": "5.2%"}
{"Structure (SMILES)": "O=C(O)/C(=C/c1c(C(=O)O)[nH]c2cc(Cl)cc(Cl)c12)c1ccccc1", "difference in remaining activity": "67.5%"}
{"Structure (SMILES)": "Cc1ccc(C2C=C(c3ccccc3)N=C3N=C(NS(C)(=O)=O)NN32)cc1 (centres unmarked)", "difference in remaining activity": "0.782%"}
{"Structure (SMILES)": "Cc1noc(C)c1S(=O)(=O)Nc1ccc(C(=O)Nc2ccc(Br)cc2)cc1", "difference in remaining activity": "21.7%"}
{"Structure (SMILES)": "CSc1ccc(/C=C/c2nc3ccccc3n2S(=O)(=O)c2ccc(Br)cc2)cc1", "difference in remaining activity": "15.1%"}
{"Structure (SMILES)": "O=C(Nc1cc(-c2ccccc2)sc1C(=O)O)c1cccc(F)c1", "difference in remaining activity": "20.9%"}
{"Structure (SMILES)": "C/C(O)=C(\\C#N)C(=O)Nc1ccc(C(F)(F)F)cc1", "difference in remaining activity": "33.1%"}
{"Structure (SMILES)": "CC1=Nc2cc(C(=O)NCCc3ccc(Cl)cc3)ccc2Sc2ccc(C)cc21", "difference in remaining activity": "2.38%"}
{"data": "Sample 3", "SMILES": "O=C(NCc1ncc(C(F)(F)F)cc1Cl)c1ccc2c(c1)C1(CCS(=O)(=O)CC1)[C@H](C1CC1)N2S(=O)(=O)c1ccc(F)cc1", "effect on": "cell-free assay", "method": "competition with immobilised ligand", "concentration": "1 µM"}
{"target": "RIOK1 (Homo sapiens, UniProt Q9BRS2)", "remaining binding [%]": 100}
{"target": "MAPK14 (Homo sapiens, UniProt Q16539)", "remaining binding [%]": 100}
{"target": "PRKCI (Homo sapiens, UniProt P41743)", "remaining binding [%]": 81}
{"target": "TAOK2 (Homo sapiens, UniProt Q9UL54)", "remaining binding [%]": 81}
{"target": "HCK (Homo sapiens, UniProt P08631)", "remaining binding [%]": 69}
{"target": "TBK1 (Homo sapiens, UniProt Q9UHD2)", "remaining binding [%]": 80}
{"target": "ERBB4 (Homo sapiens, UniProt Q15303)", "remaining binding [%]": 70}
{"target": "STK36 (Homo sapiens, UniProt Q9NRP7)", "remaining binding [%]": 100}
{"target": "PIK3CG (Homo sapiens, UniProt P48736)", "remaining binding [%]": 82}
{"target": "WNK4 (Homo sapiens, UniProt Q96J92)", "remaining binding [%]": 91}
{"target": "EGFR (Homo sapiens, UniProt P00533, L858R/T790M)", "remaining binding [%]": 95}
{"target": "MET (Homo sapiens, UniProt P08581, Y1235D)", "remaining binding [%]": 100}
{"target": "NEK5 (Homo sapiens, UniProt Q6P3R8)", "remaining binding [%]": 100}
{"target": "MET (Homo sapiens, UniProt P08581, M1250T)", "remaining binding [%]": 89}
{"data": "Sample 4", "Compound": "C=CCc1ccc(O)c(-c2cc(CC=C)ccc2O)c1", "target": "Anoctamin-1 (ANO1, Homo sapiens, UniProt Q5XXA6, del476-501)", "effect on": "chloride current", "method": "whole-cell patch clamp", "sequence of UniProt Q5XXA6 (whole entry, unmodified, looked up)": "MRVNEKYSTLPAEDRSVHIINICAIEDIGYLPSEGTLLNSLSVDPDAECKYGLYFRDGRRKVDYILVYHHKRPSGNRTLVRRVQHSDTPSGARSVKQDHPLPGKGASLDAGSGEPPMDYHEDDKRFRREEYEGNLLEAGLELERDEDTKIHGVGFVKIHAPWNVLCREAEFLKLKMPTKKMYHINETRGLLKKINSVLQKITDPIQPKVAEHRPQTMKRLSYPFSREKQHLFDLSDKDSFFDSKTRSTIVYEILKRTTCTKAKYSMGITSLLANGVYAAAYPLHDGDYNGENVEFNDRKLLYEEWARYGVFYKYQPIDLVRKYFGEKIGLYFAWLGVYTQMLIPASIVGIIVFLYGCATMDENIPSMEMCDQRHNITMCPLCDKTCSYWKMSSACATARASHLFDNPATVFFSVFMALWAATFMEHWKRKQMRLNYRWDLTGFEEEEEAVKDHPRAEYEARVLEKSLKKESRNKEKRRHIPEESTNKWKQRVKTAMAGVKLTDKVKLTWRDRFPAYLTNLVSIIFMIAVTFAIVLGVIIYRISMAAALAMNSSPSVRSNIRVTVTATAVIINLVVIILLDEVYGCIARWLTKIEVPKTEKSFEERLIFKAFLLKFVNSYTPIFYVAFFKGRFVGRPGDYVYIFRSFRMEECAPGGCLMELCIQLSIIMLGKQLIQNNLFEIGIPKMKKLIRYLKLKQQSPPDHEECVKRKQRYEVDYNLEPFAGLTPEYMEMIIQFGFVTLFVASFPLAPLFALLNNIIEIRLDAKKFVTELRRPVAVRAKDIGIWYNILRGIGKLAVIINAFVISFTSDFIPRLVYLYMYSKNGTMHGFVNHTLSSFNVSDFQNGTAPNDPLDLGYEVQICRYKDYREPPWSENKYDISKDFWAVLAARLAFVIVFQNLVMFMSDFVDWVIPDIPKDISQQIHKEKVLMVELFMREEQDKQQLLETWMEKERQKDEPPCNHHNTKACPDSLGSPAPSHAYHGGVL"}
{"conditions": "10 µM, 60 mV, 300 nM free Ca2+, together with: honokiol and magnolol 3 µM", "normalised current": 0.24}
{"conditions": "10 µM, 80 mV, 300 nM free Ca2+", "normalised current": 0.436}
{"conditions": "1 µM, -20 mV, 300 nM free Ca2+", "normalised current": -0.0464}
{"conditions": "30 µM, -100 mV, 300 nM free Ca2+", "normalised current": -0.0532}
{"conditions": "10 µM, 60 mV, 300 nM free Ca2+", "normalised current": 0.266}
{"conditions": "10 µM, -60 mV, 300 nM free Ca2+", "normalised current": -0.0645}
{"conditions": "100 µM, -60 mV, 300 nM free Ca2+, together with: honokiol and magnolol 3 µM", "normalised current": -0.0128}
{"conditions": "3 µM, 100 mV, 300 nM free Ca2+", "normalised current": 0.925}
